Experimental data pooled from the literature.
Parts stem from different laboratories: compare values within a part only.

Study 1
Target: RING finger protein unkempt homolog, zinc fingers 1-6, SBP tag (UNK, Homo sapiens, UniProt Q9C0B0, residues 30-357)
Sequence of UniProt Q9C0B0 (30-357, looked up): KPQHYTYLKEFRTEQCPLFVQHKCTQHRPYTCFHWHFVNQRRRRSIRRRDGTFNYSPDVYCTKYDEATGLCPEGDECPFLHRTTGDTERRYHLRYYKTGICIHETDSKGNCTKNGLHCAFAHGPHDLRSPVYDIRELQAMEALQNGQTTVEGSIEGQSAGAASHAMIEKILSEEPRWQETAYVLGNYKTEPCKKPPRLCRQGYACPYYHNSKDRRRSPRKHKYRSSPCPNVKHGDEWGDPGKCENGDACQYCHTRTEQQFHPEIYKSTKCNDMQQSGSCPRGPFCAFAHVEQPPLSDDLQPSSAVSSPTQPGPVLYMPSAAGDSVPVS
Technique: RNA Bind-n-Seq
Molecule type: RNA
Sample: in vitro
Tested at: 100 nM
Setting: RNA with constant flanks, vertebrate orthologous sites, ends assumed
Baseline: input RNA pool
Direction: higher = stronger binding
Quantity: bound/input enrichment
All sequences stand within: GGGAGUUCUACAGUCCGACGAUC … CAACAGAGGAUUGAGCAUCA
CAAGCUCAUUAAGAGAAGCAGUUUUUAAACUGUAUUUAUUUAUGUUUGUAAACUUGUACAUAGUAACAACCCUGCAAAUGUUUUGUUACUCUAUUUUACAUCUUUUAGGUUCUUUGGGGG: 0.631 ratio
GCACUACCUGUCCAAAUUUCACAACACUGAAUGCAAAGUAGUAAUUUUUAUAGUCACGAUAAGGUAGCUUUAGGGCAGUAUCACUAUGAUUUUAUUAGAGCAGGUUUUGAAAAUGUACAA: 1.45 ratio
GCAUGCACAUGCCACUGUCACCGAAAGCGAACCAUCACUUCUCAGAUUUCCGAGCUGUUGUAGUGUUUCCCAGUCCCUACCCUUCCCACGACUUUGAGAGAUGAACUGUCCUAAGUUGUU: 0.393 ratio
AUUCAAACCUGUGGUACCCUGGCCUCAUGUUGAAGGAGUAGAAGUGGACUUAGAGUCUAUUAGAAGAAAAAACAAAGCCAAAAAUGAACAGGAGCGCCAUGCUGGAGGAGAUUCCCAGAA: 0.454 ratio
AUAAUCACUCUAAUUGUAAUCUGAAUAAAGUGUAACAUUGUGUAGCUUUUUUGUAUAAAAUAGACAAAUAGAAAUGGUCCAAUUAGUUUCCUUUUUAAUAUGCUUAAAAUAAGCAGGUGG: 2.38 ratio
AGGGAUGGCCCCCAACCCCACCUCUGUUUAUUCUGUAAACUACAACCUAUAAAUAACCUUUAGCAUUCCUAUUGUAACAAAAUUAAUUUUUAUGAAAUAAAUUAUAUUUCCUAGUCUAAU: 0.85 ratio
GUGACUUUGGACGUCCGUUCCUGCUCUGUGGAGGCGUUGCUUCGUUCCGGGCCUUGCGGCAACUCGGUUUUUCCUUCCGCGCGGGAGACCUCUGCCACAACCAUGUUACGCCAGAUCAUC: 0.466 ratio
UAGUACUUAAGCCAACAACAGUUCUAAAAUGCUAUUUAUUUGUGUCUGUAAGAUUGUACAUAUACUACCAACCUCAUACUGUUGUGGAUUUUUUUCUCACAAGCUUGAGUUUAGGUUUUU: 0.481 ratio

Study 2
Target: RNA binding protein fox-1 homolog 2, RRM domain, GST-SBP tag (RBFOX2, Homo sapiens, UniProt O43251-10, residues 100-194)
Technique: RNA Bind-n-Seq
Molecule type: RNA
Sample: in vitro
Tested at: 365 nM
Setting: natural RNA segment, single round, ends assumed
Baseline: no-protein control
Direction: higher = stronger binding
Quantity: RBNS enrichment (R)
All sequences stand within: GGGAGUUCUACAGUCCGACGAUC … UGGAAUUCUCGGGUGCCAA
Construct (chain): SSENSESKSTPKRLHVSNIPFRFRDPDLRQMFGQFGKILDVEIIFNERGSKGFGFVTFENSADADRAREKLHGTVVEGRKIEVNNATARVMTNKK
CACUUUGACCCUCUGGCUAAGCCCUGGGAGUCCCUGACAGGUCCAGAAACUUCUCUGACACCCAUUCACCAGGGUGCUGAGAUAGGAGAAAGUGCUCAUUUAUAAUGUGU: 0.247
CUACCAUUUAGCGGAGUUAUCUUUGAAAAGACAUCAACAUCCCUGUGCAUUUGUCAGUCUGGUAGAGUGGACUGGAGGUUGUCAAGUCUGCAUUGUAGUCUGAGUGUGCC: 0.704
UGGCCCGUGGACAGGAUAAGCAGAUGCACCUGUGACUGACUGGAGGCGUGUUGCUGUGUAUCCCGGGCAUCCAUGGGUUCCAACUGCCACUGCCCCAGUCUUGGCCAGAG: 0.829
AUUUCCUCGGGAUAUGAGAAGCCUCGAUAAACAUCUCUGCCGUUCCCCAUCCCUAUAUCAACACUCUGGCUUCCCUUUCUCCCAUAUCACACUCUGGCCCAAGGACCCCA: 0.984
CUGUGCCCCAGCGGUCACUCACAACAUAGGUCUGUUGAGUCUUUUUUAAAUGCACUAGGAGCCAACUCUGUCCAUCUGUGAUGGGAUUAGAAAGCCCGGUGUUUUUCUGU: 0.297
AGAAGAAAGUGUGCCAUGAGAGAAAAACUUAAGGAGUUUUGAAAAGUAAUGCAAAUAACAAAACUGCAACACUAUUUUUAAAAAGAUAAAUAUCUGAGUUAAAAUUACUG: 0.975
UGUUUUCUCAGCAUGCAUUAAAAAUAUUCCUUAACUUCAAUUGUAAAUAAACUUUUGGUGUUAGGGAUUUCAGUGUCUAUUUUUCUUUUCCUUGUUUCUUCAACUUUGUC: 33.7
GUUGGCUCGCUUUCUGUGUCUGUUAAAUGAAUGUCAUAUGUAAAUGCUAAACUAAGUCAACAGUGUCUCAGAACUGAAUAACUGCAGUGACUUGAUGCUCUAAAUCAUUG: 0.541
ACUGGGUCUUGUCUAUCUUGAUGGAGAAGAGGGGUUCCUGCCCAGGAUCUUACAACACAGCAAGUAGCAUAGAGCUCUUUCCUUCCUCUUUUUUGGGGAGGUUGGGGUCA: 0.505
UGCCCUCUGUGCUAUCAUCUUAUCAUCAAUUAUUAGACAAAUCCCACUGGCCUACAGUCUUGCUUCUGCAGCACCCACUUUGUCUCCUCAGGUAGUGAUGAAUUAGUUGC: 0.632
AGAGUUUAAAUGUUGACGGCGUUUGCUAUGUAUAAUUGCCCCUACACCGUUAUAAAGUGUUUUCAGGAAUUUCAGUGCCAUCCUUCCUUUUUCCUCCCUCAGUUACGUGG: 0.729
CUGGUGUGAGUUGGGGUAGGGUCCCCAGAGUCUCAGGAAAGAAGCUAGAUCACACUGAUUCUCCUGCCGUGGAUAUGAGUUAAAACCAAGUGGUAAAGCACUUGGAUUCA: 0.378

Study 3
Target: Interferon regulatory factor 7, full length, phosphomimetic (IRF7, Homo sapiens, UniProt Q92985, residues 1-503, S471D/S472D/S475D/S476D/S477D/S483D/S484D/S487D)
Technique: protein-binding microarray
Molecule type: double-stranded DNA, one strand shown
Sample: in vitro
Tested at: 2200 nM top
Setting: 60-bp whole probe
Together with: salmon DNA 0.4 mg/ml
Baseline: random background probes
Direction: higher = stronger binding
Quantity: fitted relative affinity
All sequences stand within: GCCTAGCAC … GTCTTGATTCGCTTGACGCTGCTG
Target sequence (chain): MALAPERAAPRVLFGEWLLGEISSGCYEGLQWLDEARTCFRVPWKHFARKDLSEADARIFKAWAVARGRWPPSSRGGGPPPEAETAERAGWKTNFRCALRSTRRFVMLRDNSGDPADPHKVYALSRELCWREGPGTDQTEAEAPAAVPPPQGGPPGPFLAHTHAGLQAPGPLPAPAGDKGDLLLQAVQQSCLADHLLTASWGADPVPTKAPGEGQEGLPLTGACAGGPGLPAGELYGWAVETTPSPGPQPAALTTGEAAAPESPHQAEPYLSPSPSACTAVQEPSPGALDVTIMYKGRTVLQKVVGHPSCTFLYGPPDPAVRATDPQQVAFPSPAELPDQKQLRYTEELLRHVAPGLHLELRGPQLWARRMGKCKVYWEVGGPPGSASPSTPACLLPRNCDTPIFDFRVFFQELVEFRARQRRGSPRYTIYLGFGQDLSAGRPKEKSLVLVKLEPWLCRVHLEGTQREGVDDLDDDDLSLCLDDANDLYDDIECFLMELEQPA
TCACCTTTACTTTCTTTACTGTGCTAG: 2.78 z-score
GACGGTCTCGTTTTCCTGACGTGCTAG: 2.49 z-score
TCACCTTCAGCTCTAGGACTGTGCTAG: 1.03 z-score
TCAACTCTTTCTGTCAGACTGTGCTAG: 1.46 z-score
GACGGTATCGGGTATCAGGACGTGCTA: 0.199 z-score
TTAGGACTGCTTCTCCTTCAGTGCTAG: 0.626 z-score
TTAAGTTTCCTTTCCCTTTAGTGCTAG: 6.01 z-score
TTAGGTATCGACTTTCGGTAAGTGCTA: 1.99 z-score
TCACGTTACTTCCTCAAACTGTGCTAG: 2.11 z-score
CTAGGTTTCGGTTTCGGTTAGTGCTAG: 17.9 z-score
GACTGACTGGACACTGGGGACGTGCTA: -0.535 z-score

Further values, each from its own experiment
PhoQ, residues 284 288 289 292 302 303 SNGLAW
fold induction (PhoP, residues 12 14 15 18 19 NQAHL (Escherichia coli, UniProt P23836); Sort-seq, measured: YFP reporter; E. coli; PhoQ-PhoP variant library, together with: 10 µM Mg2+; baseline: high Mg2+ state, higher = stronger signaling): 7.71
